Assay results of several laboratories.
Compare with care: the assays were run in different laboratories. ± marks the error that the study gave.
S1PR5: Sphingosine 1-phosphate receptor 5 (S1PR5, Homo sapiens, UniProt Q9H228)
UniProt Q9H228, sequence (whole entry, looked up): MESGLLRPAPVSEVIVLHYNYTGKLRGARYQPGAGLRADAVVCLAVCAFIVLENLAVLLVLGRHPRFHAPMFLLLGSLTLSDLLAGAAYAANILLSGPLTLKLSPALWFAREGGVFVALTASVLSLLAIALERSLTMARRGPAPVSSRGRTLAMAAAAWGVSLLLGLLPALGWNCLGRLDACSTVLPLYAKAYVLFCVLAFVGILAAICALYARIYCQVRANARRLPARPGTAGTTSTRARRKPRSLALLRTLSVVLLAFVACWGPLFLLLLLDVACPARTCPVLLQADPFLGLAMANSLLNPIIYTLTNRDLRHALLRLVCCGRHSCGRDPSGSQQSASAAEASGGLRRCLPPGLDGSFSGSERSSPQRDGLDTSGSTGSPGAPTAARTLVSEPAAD
FPR2: N-formyl peptide receptor 2 (FPR2, Homo sapiens, UniProt P25090)
UniProt P25090, sequence (whole entry, looked up): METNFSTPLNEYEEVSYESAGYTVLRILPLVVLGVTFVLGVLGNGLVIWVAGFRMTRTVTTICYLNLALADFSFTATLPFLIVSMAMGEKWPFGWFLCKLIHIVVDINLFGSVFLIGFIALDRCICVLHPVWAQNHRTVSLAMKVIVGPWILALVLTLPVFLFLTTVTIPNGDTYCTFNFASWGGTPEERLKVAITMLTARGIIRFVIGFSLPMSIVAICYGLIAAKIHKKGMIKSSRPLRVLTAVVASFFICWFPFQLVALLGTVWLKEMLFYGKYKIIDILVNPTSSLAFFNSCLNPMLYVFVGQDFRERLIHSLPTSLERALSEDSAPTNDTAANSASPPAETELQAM
GRM1: Metabotropic glutamate receptor 1 (GRM1, Homo sapiens, UniProt Q13255)
UniProt Q13255, sequence (whole entry, looked up): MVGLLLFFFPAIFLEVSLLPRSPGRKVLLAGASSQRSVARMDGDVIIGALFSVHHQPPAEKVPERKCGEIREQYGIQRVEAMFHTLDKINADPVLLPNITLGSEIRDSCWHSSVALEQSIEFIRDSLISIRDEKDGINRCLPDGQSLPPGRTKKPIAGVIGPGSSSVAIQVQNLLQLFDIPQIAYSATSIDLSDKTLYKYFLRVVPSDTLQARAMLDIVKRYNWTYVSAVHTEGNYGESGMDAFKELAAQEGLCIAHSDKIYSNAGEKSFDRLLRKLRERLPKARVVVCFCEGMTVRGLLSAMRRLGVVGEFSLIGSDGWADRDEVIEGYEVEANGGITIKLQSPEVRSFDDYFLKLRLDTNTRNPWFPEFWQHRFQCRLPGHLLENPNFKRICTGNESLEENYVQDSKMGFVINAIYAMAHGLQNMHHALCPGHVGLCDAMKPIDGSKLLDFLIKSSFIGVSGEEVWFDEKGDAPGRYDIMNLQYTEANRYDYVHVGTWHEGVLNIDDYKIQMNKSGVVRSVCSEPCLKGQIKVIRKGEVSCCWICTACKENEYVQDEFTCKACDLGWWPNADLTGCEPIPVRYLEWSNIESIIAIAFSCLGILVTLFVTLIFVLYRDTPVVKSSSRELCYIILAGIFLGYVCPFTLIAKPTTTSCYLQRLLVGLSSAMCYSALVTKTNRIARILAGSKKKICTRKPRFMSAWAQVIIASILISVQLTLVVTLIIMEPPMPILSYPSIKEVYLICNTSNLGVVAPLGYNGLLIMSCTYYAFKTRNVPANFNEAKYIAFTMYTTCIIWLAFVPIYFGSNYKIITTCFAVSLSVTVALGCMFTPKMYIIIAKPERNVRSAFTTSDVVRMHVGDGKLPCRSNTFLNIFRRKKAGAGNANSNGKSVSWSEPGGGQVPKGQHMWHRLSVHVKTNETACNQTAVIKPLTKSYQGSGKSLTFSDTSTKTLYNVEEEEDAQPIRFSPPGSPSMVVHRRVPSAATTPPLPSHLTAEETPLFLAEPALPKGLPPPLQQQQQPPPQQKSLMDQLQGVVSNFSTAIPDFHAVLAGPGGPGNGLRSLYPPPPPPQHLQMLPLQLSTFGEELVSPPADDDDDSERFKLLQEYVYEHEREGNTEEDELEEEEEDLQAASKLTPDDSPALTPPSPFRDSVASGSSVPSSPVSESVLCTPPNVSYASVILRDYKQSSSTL
UniProt O04197, sequence (whole entry, looked up): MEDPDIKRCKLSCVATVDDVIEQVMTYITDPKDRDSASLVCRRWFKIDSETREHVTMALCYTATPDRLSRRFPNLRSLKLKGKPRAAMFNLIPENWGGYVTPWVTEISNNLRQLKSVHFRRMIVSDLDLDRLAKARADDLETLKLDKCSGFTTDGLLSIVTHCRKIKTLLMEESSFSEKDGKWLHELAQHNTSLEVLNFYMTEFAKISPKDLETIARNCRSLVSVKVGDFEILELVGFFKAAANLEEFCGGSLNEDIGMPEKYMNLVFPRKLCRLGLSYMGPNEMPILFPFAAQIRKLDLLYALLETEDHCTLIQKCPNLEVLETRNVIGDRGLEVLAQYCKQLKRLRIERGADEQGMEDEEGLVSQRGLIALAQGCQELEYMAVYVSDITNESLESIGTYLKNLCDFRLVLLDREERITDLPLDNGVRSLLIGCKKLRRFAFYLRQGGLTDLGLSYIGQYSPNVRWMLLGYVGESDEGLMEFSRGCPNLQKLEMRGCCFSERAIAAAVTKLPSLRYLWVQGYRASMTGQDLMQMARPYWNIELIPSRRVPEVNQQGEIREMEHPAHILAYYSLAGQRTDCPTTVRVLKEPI
UniProt O15354, sequence (whole entry, looked up): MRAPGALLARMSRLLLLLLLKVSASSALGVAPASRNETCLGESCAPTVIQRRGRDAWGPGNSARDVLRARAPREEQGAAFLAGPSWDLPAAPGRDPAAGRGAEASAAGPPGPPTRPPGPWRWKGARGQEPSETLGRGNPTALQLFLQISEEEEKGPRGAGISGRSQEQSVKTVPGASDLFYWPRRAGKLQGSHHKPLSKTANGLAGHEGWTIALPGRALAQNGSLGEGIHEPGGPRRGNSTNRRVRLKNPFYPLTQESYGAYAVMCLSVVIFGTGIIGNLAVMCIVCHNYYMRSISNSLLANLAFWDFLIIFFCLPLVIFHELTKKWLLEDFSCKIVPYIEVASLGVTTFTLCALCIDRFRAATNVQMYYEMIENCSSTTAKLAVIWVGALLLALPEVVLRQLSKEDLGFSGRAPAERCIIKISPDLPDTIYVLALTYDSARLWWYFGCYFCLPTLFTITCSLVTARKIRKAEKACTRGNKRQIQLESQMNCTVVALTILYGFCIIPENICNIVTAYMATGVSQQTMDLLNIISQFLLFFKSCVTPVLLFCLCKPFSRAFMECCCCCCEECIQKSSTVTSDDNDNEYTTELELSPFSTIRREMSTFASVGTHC
UniProt Q9LMA8, sequence (whole entry, looked up): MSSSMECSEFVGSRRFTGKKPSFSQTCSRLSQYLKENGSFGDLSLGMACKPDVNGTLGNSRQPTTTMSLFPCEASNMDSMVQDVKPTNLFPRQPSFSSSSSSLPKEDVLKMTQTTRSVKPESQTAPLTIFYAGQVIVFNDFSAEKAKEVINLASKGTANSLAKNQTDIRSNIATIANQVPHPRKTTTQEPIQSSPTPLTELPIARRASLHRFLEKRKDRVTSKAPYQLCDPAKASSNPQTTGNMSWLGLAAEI
UniProt Q9WUP0, sequence (whole entry, unmodified, looked up): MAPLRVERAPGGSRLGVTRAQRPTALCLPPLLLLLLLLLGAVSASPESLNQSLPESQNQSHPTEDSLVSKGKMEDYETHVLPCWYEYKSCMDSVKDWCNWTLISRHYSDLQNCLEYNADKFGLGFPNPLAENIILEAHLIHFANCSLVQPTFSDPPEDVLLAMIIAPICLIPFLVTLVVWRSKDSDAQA
UniProt P00519, sequence (whole entry, looked up): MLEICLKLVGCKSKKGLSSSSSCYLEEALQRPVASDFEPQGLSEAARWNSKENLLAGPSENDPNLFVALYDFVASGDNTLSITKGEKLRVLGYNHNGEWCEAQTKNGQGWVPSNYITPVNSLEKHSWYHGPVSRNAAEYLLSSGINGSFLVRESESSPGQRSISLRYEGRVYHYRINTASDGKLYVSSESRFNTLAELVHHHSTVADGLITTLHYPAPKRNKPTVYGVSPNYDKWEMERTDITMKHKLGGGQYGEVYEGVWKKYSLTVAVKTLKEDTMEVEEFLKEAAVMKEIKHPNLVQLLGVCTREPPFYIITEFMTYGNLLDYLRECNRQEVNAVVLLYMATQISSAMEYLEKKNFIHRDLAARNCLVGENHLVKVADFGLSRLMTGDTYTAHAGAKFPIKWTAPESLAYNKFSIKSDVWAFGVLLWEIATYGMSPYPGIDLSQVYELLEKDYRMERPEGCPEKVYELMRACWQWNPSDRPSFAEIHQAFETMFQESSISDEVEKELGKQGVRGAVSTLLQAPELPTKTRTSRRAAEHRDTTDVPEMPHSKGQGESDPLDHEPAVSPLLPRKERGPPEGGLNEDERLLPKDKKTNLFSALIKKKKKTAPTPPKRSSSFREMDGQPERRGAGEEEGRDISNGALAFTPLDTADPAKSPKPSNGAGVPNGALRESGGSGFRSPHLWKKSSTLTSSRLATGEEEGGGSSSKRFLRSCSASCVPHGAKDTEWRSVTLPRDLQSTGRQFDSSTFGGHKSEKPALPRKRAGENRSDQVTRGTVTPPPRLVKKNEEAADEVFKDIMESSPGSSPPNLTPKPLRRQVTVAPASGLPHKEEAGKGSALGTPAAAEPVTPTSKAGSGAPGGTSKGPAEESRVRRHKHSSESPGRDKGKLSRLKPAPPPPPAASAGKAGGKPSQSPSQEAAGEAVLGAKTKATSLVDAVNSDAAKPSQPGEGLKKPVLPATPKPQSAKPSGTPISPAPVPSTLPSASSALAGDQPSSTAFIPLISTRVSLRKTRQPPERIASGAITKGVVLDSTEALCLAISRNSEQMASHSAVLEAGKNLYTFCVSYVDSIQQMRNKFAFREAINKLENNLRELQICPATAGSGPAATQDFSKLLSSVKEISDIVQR

Structure (SMILES) | target or system | test | system | conditions | how to read | endpoint | value
Cc1cc(-c2ccc(NC(=O)[C@H](CCCCNC(=O)CCOCCOCCC(=O)N[C@H](Cc3ccccc3)C(=O)N[C@H]3CSSC[C@@H](C(=O)N[C@H](C(=O)O)[C@@H](C)O)NC(=O)[C@H]([C@@H](C)O)NC(=O)[C@H](CCCCN)NC(=O)[C@@H](Cc4c[nH]c5ccccc45)NC(=O)[C@H](Cc4ccc(O)cc4)NC3=O)NC(=O)CN3CCN(CC(=O)O)CCN(CC(=O)O)CCN(CC(=O)O)CC3)c(C)c2)ccc1N=Nc1ccc2c(S(=O)(=O)O)cc(S(=O)(=O)O)c(N)c2c1O [lutetium-177 labelled] |  |  | patients with metastatic NETs, lymph node metastases |  | baseline: cpd over 177Lu-EB-TATE | residence time ratio | 2.3 fold
COc1cc(-c2cnc3nc2NCCCNS(=O)(=O)c2cc(ccc2O)N3)ccc1F | Tyrosine-protein kinase ABL1 (ABL1, Homo sapiens, UniProt P00519) | target engagement in cells, BRET |  |  |  | EC50 | 17000 nM
CCc1nc(-c2ccc(-c3ccc(CCC(N)(CO)COP(=O)(O)O)cc3)cc2)co1 (stereo not shown) | S1PR5 | β-arrestin recruitment, agonist |  |  |  | EC50 | 29.4 nM
CO[C@@H]1[C@H](O)[C@@H](COP(=O)(O)OP(=O)([O-])C(F)(F)P(=O)(O)OP(=O)(O)OC[C@H]2O[C@@H](n3cnc4c(=O)[nH]c(N)nc43)[C@H](O)[C@@H]2O)O[C@H]1n1c[n+](C)c2c(O)nc(N)nc21 |  | cap-dependent translation, inhibitor | rabbit reticulocyte lysate | preincubated 60 min in lysate |  | IC50 | 3.59 ± 0.28 µM
CCCCCCCOc1ccc(CC[C@](N)(CO)COP(=O)(O)O)cc1C(F)(F)F | S1PR5 | calcium signal, agonist |  |  |  | EC50 | 0.47 nM
CC[C@H](C)[C@H](NC(=O)CN)C(=O)N[C@H](C(=O)N[C@@H](CC(N)=O)C(=O)N[C@H](C(=O)N[C@@H](CC(C)C)C(=O)N[C@@H](CCC(N)=O)C(=O)N[C@@H](CCCCN)C(=O)N[C@@H](Cc1ccc(O)cc1)C(=O)N[C@@H](Cc1ccc(O)cc1)C(=O)N[C@H]1CSSC[C@@H]2NC(=O)[C@H](CCCCN)NC(=O)[C@H](CCCNC(=N)N)NC(=O)CNC(=O)[C@H](CCCNC(=N)N)NC(=O)[C@H]([C@@H](C)O)NC(=O)[C@H](CO)NC(=O)[C@@H]3CSSC[C@H](NC(=O)[C@H](CCCNC(=N)N)NC(=O)CNC(=O)CNC(=O)[C@H](CCCNC(=N)N)NC(=O)[C@H](C(C)C)NC(=O)[C@H](CCCNC(=N)N)NC1=O)C(=O)N[C@@H](C)C(=O)N[C@@H](C(C)C)C(=O)N[C@@H](CC(C)C)C(=O)N[C@@H](CO)C(=O)N[C@@H](CSSC[C@@H](C(=O)N[C@@H](CCCNC(=N)N)C(=O)N[C@@H](CCCNC(=N)N)C(=O)N[C@@H](CCCCN)C(=O)N[C@@H](CCCCN)C(=O)O)NC2=O)C(=O)N[C@@H](CC(C)C)C(=O)N1CCC[C@H]1C(=O)N[C@@H](CCCCN)C(=O)N[C@@H](CCC(=O)O)C(=O)N[C@@H](CCC(=O)O)C(=O)N[C@@H](CCC(N)=O)C(=O)N[C@@H]([C@@H](C)CC)C(=O)NCC(=O)N[C@@H](CCCCN)C(=O)N3)[C@@H](C)O)[C@@H](C)CC | Mas-related G-protein coupled receptor member X3 (Homo sapiens, UniProt Q96LB0) | calcium signal, agonist, fluorescence |  |  |  | EC50 | 10800 nM
NS(=O)(=O)Nc1ncnc(OCCOc2ncc(Br)cn2)c1-c1ccc(Br)cc1 |  | Michaelis-Menten plot, item: compound formation | male Sprague-Dawley rat, liver microsomes | 1500 mg/kg daily, 4 weeks |  | Km | 2.4 ± 0.7 µmol/L
O=C(Cc1ccc([N+](=O)[O-])cc1)N[C@@H](Cc1c[nH]c2ccccc12)C(=O)NCC1(c2ccccn2)CCCCC1 | FPR2 | calcium mobilization, agonist | HL-60 cells expressing FPR2 |  |  | EC50 | 17400 ± 5200 nM
O=C(Nc1ccc(N2C(=O)c3ccc(F)cc3C2=O)c(Cl)c1)c1ncccc1Cl | GRM1 | calcium mobilization, positive allosteric modulator | T-REx-293 | together with: glutamate EC20 |  | EC50 | 3880 nM
C[n+]1cn(C2OC(COP(=O)(O)OP(=O)([O-])C(F)(F)P(=O)(O)OP(=O)(O)OCC3OC(n4cnc5c(=O)[nH]c(N)nc54)C(O)C3O)C(O)C2O)c2nc(N)nc(O)c21 (stereo not shown) |  | cap-dependent translation, inhibitor | rabbit reticulocyte lysate | preincubated 60 min in lysate |  | IC50 | 4.99 ± 0.41 µM
C[N+](C)(CI)CCO | TMA lyase | TMA production, ex vivo | Proteus mirabilis, wild type |  |  | EC50 | 48 nM
Cc1nn(-c2ccc(S(=O)(=O)N[C@H](CO)CC(C)C)cc2)c2nn3nnnc3nc12 | PC-3 | PI/Hoechst staining |  | 2 µM, 24 h |  | necrotic cells | 51 ± 1.4%
CC[C@H](C)[C@H](NC(=O)[C@@H]1CCCN1C(=O)CNC(=O)[C@H](Cc1ccccc1)NC(=O)[C@H](CC(N)=O)NC(=O)[C@H](CC(N)=O)NC(=O)[C@H](CO)NC(=O)[C@H](CO)NC(=O)[C@H](Cc1c[nH]cn1)NC(=O)[C@@H](NC(=O)[C@H](CC(C)C)NC(=O)[C@H](Cc1ccccc1)NC(=O)[C@H](CC(N)=O)NC(=O)[C@H](C)NC(=O)[C@H](CC(C)C)NC(=O)[C@H](CCCNC(=N)N)NC(=O)[C@H](CCC(N)=O)NC(=O)[C@@H](NC(=O)[C@H](C)NC(=O)[C@@H]1CSSC[C@H](NC(=O)[C@@H](N)CCCCN)C(=O)N[C@@H](CC(N)=O)C(=O)N[C@@H]([C@@H](C)O)C(=O)N[C@@H](C)C(=O)N[C@@H]([C@@H](C)O)C(=O)N1)[C@@H](C)O)C(C)C)C(=O)N[C@@H](CC(C)C)C(=O)N1CCC[C@H]1C(=O)N1CCC[C@H]1C(=O)N[C@H](C(=O)N[C@@H](CC(N)=O)C(=O)N[C@H](C(=O)NCC(=O)N[C@@H](CO)C(=O)N[C@@H](CC(N)=O)C(=O)N[C@H](C(=O)N[C@@H](Cc1ccc(O)cc1)C(N)=O)[C@@H](C)O)C(C)C)[C@@H](C)O | Calcrl/Ramp2 (Mus musculus, UniProt Q9R1W5+Q9WUP0, P10T) | cAMP production, agonist | COS-7, transfected | 15 min, 37 °C, together with: IBMX 1 mM |  | EC50 | 324 nM
Cc1cccc(-c2ccc([C@@H]3[C@@H](CO)N4CCCCN(S(=O)(=O)c5nccn5C)C[C@@H]34)cc2)c1C | Insulin-degrading enzyme (IDE, Homo sapiens, UniProt P14735) |  |  |  |  | EC50 | 0.5 nM
O=C(c1cc2c(s1)CCCCC2)N1CCC(n2c(=O)[nH]c3ccccc32)CC1 | Short transient receptor potential channel 6 (Trpc6, Mus musculus, UniProt Q61143, N701Q) | channel activation, agonist, whole-cell patch clamp |  |  |  | EC50 | 5370 ± 300 nM
O=P(O)(O)O[C@@H]1[C@@H](O)[C@H](O)[C@H](O)[C@H](O)[C@H]1OP(=O)(O)O | Inositol 1,4,5-trisphosphate-gated calcium channel ITPR1 (Itpr1, Rattus norvegicus, UniProt P29994) | calcium signal, agonist |  |  |  | EC50 | 7590 nM
O=C(Nc1ccc(N2C(=O)c3cccc(Cl)c3C2=O)c(Cl)c1)c1ccccn1 | GRM1 | positive allosteric modulator |  |  |  | EC50 | 75 nM
Nc1ncnc2c1ncn2[C@@H]1O[C@H](CO)[C@@H](O[C@H]2O[C@H](CO)[C@@H](OP(=O)(O)O)[C@H](OP(=O)(O)O)[C@H]2O)[C@H]1O | Inositol 1,4,5-trisphosphate-gated calcium channel ITPR1 (Itpr1, Rattus norvegicus, UniProt P29994, del318-332/R568Q) | Ca2+ release | DT40, permeabilized |  |  | EC50 | 257 nM
C[N+](C)(CBr)CCO | TMA lyase | TMA production, ex vivo | Proteus mirabilis, wild type |  |  | EC50 | 40 nM
CCc1nc(-c2ccc(-c3ccc(CCC(N)(CO)CO)cc3)cc2)co1 | S1PR5 | β-arrestin recruitment, agonist |  |  |  | EC50 | 291 nM
CSCC[C@H](NC(=O)[C@H](CCCNC(=N)N)NC(=O)[C@H](CCCCN)NC(=O)[C@@H](N)Cc1c[nH]c2ccccc12)C(=O)N[C@H](C(=O)N[C@H](CCSC)C(N)=O)C(C)C | FPR2 | binding, competitor | RBL | 4 °C, together with: 5 nM WK(FL)YMVm |  | EC50 | 705 nM
CC[C@H](C)[C@H](NC(=O)[C@H](CCC(=O)O)NC(=O)[C@H](CCC(=O)O)NC(=O)[C@@H](NC(=O)[C@H](C)NC(=O)[C@H](CC(N)=O)NC(=O)[C@H](CC(N)=O)NC(=O)[C@H](CC(=O)O)NC(=O)[C@@H](NC(=O)[C@H](CC(C)C)NC(=O)[C@@H](C)NC(=O)[C@@H](N)[C@@H](C)O)[C@@H](C)CC)[C@@H](C)O)C(=O)N[C@@H](CC(C)C)C(=O)N[C@@H](Cc1ccc(O)cc1)C(=O)O | GPR37 (Homo sapiens, UniProt O15354) | β-arrestin recruitment, agonist, luciferase |  |  |  | EC50 | 19.4 nM
CCCCOc1nc(N)c2[nH]c(=O)n(CCCN(CCCN3CCOCC3)Cc3cccc(CC(=O)OC)c3)c2n1 | Toll-like receptor 7 (Rattus norvegicus, UniProt A5H2Z9) | reporter gene, agonist | HEK293 NF-kB SEAP reporter |  |  | EC50 | 251 nM
O=P(O)(O)O[C@@H]1[C@@H](OP(=O)(O)O)[C@H](OP(=O)(O)O)[C@@H](O)[C@@H](OP(=O)(O)O)[C@H]1OP(=O)(O)O | COI1/TIFY10A, with JAZ1 (Arabidopsis thaliana, UniProt O04197+Q9LMA8) | binding, cofactor |  | COI1-ASK1 with JAZ1, together with: 100 nM 3H-coronatine |  | EC50 | 27 nM
C[N+](C)(CCl)CC(=O)O | TMA lyase | TMA production, ex vivo | Proteus mirabilis, wild type |  |  | EC50 | 81000 nM
O=C(Nc1ccc(N2C(=O)c3ccc(Cl)cc3C2=O)c(Cl)c1)c1ncccc1Cl | GRM1 | calcium signal, positive allosteric modulator |  |  |  | EC50 | 1860 nM
Cc1ccc(Oc2cc(C(=O)NC3CC(F)C3)nc3ccsc23)cn1 (stereo not shown) | Metabotropic glutamate receptor 5 (GRM5, Homo sapiens, UniProt P41594) | calcium signal, agonist |  |  |  | EC50 | > 30000 nM
C[N+](C)(CF)CCO | TMA lyase | TMA production, ex vivo | Proteus mirabilis, wild type |  |  | EC50 | 56 nM

A few entries again:
Structure (SMILES) | target or system | test | system | conditions | how to read | endpoint | value
O=P(O)(O)O[C@@H]1[C@@H](OP(=O)(O)O)[C@H](OP(=O)(O)O)[C@@H](O)[C@@H](OP(=O)(O)O)[C@H]1OP(=O)(O)O | COI1/TIFY10A, with JAZ1 (Arabidopsis thaliana, UniProt O04197+Q9LMA8) | binding, cofactor |  | COI1-ASK1 with JAZ1, together with: 100 nM 3H-coronatine |  | EC50 | 27 nM
C[n+]1cn(C2OC(COP(=O)(O)OP(=O)([O-])C(F)(F)P(=O)(O)OP(=O)(O)OCC3OC(n4cnc5c(=O)[nH]c(N)nc54)C(O)C3O)C(O)C2O)c2nc(N)nc(O)c21 (stereo not shown) |  | cap-dependent translation, inhibitor | rabbit reticulocyte lysate | preincubated 60 min in lysate |  | IC50 | 4.99 ± 0.41 µM
